Measured values collected from several papers.
Compare with care: the assays were run in different laboratories.
Organism: Enterococcus faecalis

Compound	assay	system	conditions	MIC
CC[C@H](C)[C@H](NC(=O)CNC(=O)[C@@H](NC(=O)CNC(=O)[C@@H](NC(=O)CNC(=O)[C@@H](NC(=O)[C@@H](NC(=O)[C@H](CCC(N)=O)NC(=O)[C@H](CCC(=O)O)NC(=O)[C@@H](NC(=O)[C@H](CC(C)C)NC(=O)[C@H](CCCNC(=N)N)NC(=O)[C@H](Cc1ccccc1)NC(=O)[C@@H](NC(=O)[C@H](CC(N)=O)NC(=O)[C@H](CCCCN)NC(=O)CNC(=O)[C@H](CCSC)NC(=O)[C@H](CCCCN)NC(=O)CNC(=O)[C@H](CC(C)C)NC(=O)[C@H](CCCCN)NC(=O)[C@H](CCCCN)NC(=O)CNC(=O)[C@H](Cc1ccccc1)NC(=O)[C@H](CCCCN)NC(=O)[C@H](CCCCN)NC(=O)[C@H](CC(C)C)NC(=O)[C@H](Cc1c[nH]c2ccccc12)NC(=O)CN)C(C)C)C(C)C)C(C)C)C(C)C)C(C)C)C(C)C)C(=O)N[C@@H](CC(N)=O)C(=O)N[C@@H](C)C(=O)N[C@@H](CC(C)C)C(=O)N[C@@H](CO)C(=O)O		ATCC 29212		17.6 µg/mL
CN[C@@H]1[C@H](O)[C@H](NC)[C@H]2O[C@]3(O)[C@H](O[C@@H]2[C@H]1O)O[C@H](C)C[C@H]3NC(=O)Cc1ccc(F)cn1	microbial growth, broth dilution	ATCC33186		25 µg/mL
CC[C@H](C)[C@H](NC(=O)[C@H](Cc1c[nH]c2ccccc12)NC(=O)[C@H](Cc1ccc(O)cc1)NC(=O)[C@H](CCCCN)NC(=O)[C@H](CC(C)C)NC(=O)[C@@H](N)CO)C(=O)N[C@@H](CCCNC(=N)N)C(=O)N[C@@H](Cc1ccc(O)cc1)C(=O)N[C@@H](CCCCN)C(=O)N[C@@H](CCCNC(=N)N)C(=O)N[C@@H](CCC(N)=O)C(=O)NCC(=O)N[C@@H](C)C(=O)N[C@@H](C)C(=O)N[C@@H](CCCNC(=N)N)C(=O)N[C@@H](Cc1ccccc1)C(N)=O	broth dilution	KCTC 3511		12.5 µM
CN[C@@H]1[C@H](O)[C@H](NC)[C@H]2O[C@]3(O)[C@H](O[C@@H]2[C@H]1O)O[C@H](C)C[C@H]3NC(=O)Cc1ccccn1	microbial growth, broth dilution	ATCC33186		100 µg/mL
C#CCNC(=O)[C@H]1NC(=O)[C@H]2NC(=O)[C@H](NC(=O)[C@@H]3NC(=O)[C@H](CC(N)=O)NC(=O)[C@H](NC(=O)[C@@H](CC(C)C)NC)[C@H](O)c4ccc(c(Cl)c4)Oc4cc3cc(c4O[C@@H]3O[C@H](CO)[C@@H](O)[C@H](O)[C@H]3O[C@H]3C[C@](C)(N)[C@H](O)[C@H](C)O3)Oc3ccc(cc3Cl)[C@H]2O)c2ccc(O)c(c2)-c2c(O)cc(O)cc21	broth microdilution	vancomycin-resistant, tryptic soy broth	20 to 24 h, 37 °C, 0.002% polysorbate 80	16 µg/mL
COc1cccc(OC)c1C(=O)N[C@@H]1C(=O)N2[C@@H]1SC(C)(C)[C@@H]2C(=O)O		clinical isolate	18 to 20 h, 37 °C	128 µM
CN[C@H](CC(C)C)C(=O)N[C@H]1C(=O)N[C@@H](CC(N)=O)C(=O)N[C@H]2C(=O)N[C@H]3C(=O)N[C@H](C(=O)N[C@H](C(=O)NCc4cn(CCCCC(=O)N[C@H](C(=O)N[C@@H](CCN)C(=O)N[C@H]5CCNC(=O)[C@H]([C@@H](C)O)NC(=O)[C@H](CCN)NC(=O)[C@H](CCN)NC(=O)[C@H](CC(C)C)NC(=O)[C@@H](CC(C)C)NC(=O)[C@H](CCN)NC5=O)[C@@H](C)O)nn4)c4cc(O)cc(O)c4-c4cc3ccc4O)[C@H](O)c3ccc(c(Cl)c3)Oc3cc2cc(c3O[C@@H]2O[C@H](CO)[C@@H](O)[C@H](O)[C@H]2O[C@H]2C[C@](C)(N)[C@H](O)[C@H](C)O2)Oc2ccc(cc2Cl)[C@H]1O	broth microdilution	vancomycin-resistant		25 µM
CN[C@@H]1[C@H](O)[C@H](NC)[C@H]2O[C@]3(O)[C@H](O[C@@H]2[C@H]1O)O[C@H](C)C[C@H]3NC(=O)Cc1cc(Cl)ccn1	microbial growth, broth dilution	ATCC33186		50 µg/mL
C#CCOc1ccc(CN[C@@]2(C)C[C@H](O[C@H]3[C@H](Oc4c5cc6cc4Oc4ccc(cc4Cl)[C@@H](O)[C@@H](NC(=O)[C@@H](CC(C)C)NC)C(=O)N[C@@H](CC(N)=O)C(=O)N[C@H]6C(=O)N[C@H]4C(=O)N[C@H](C(=O)N[C@H](C(=O)O)c6cc(O)cc(O)c6-c6cc4ccc6O)[C@H](O)c4ccc(c(Cl)c4)O5)O[C@H](CO)[C@@H](O)[C@@H]3O)O[C@@H](C)[C@H]2O)cc1OC	broth microdilution	vancomycin-resistant, tryptic soy broth	20 to 24 h, 37 °C, 0.002% polysorbate 80	32 µg/mL
CC[C@H](C)[C@H](NC(=O)[C@H](Cc1c[nH]c2ccccc12)NC(=O)[C@H](Cc1ccc(O)cc1)NC(=O)[C@H](CCCCN)NC(=O)[C@H](CC(C)C)NC(=O)[C@H](CO)NC(=O)[C@@H](N)Cc1ccccc1)C(=O)N[C@@H](CCCNC(=N)N)C(=O)N[C@@H](Cc1ccc(O)cc1)C(=O)N[C@@H](CCCCN)C(=O)N[C@@H](CCCNC(=N)N)C(=O)N[C@@H](CCC(N)=O)C(=O)NCC(=O)N[C@@H](C)C(=O)N[C@@H](C)C(=O)N[C@@H](CCCNC(=N)N)C(=O)N[C@@H](Cc1ccccc1)C(N)=O	broth dilution	KCTC 3511		> 100 µM
CN[C@H](CC(C)C)C(=O)N[C@H]1C(=O)N[C@@H](CC(N)=O)C(=O)N[C@H]2C(=O)N[C@H]3C(=O)N[C@H](C(=O)N[C@H](C(=O)NCc4cn(CC(=O)N[C@H](C(=O)N[C@@H](CCN)C(=O)N[C@H]5CCNC(=O)[C@H]([C@@H](C)O)NC(=O)[C@H](CCN)NC(=O)[C@H](CCN)NC(=O)[C@H](CC(C)C)NC(=O)[C@@H](CC(C)C)NC(=O)[C@H](CCN)NC5=O)[C@@H](C)O)nn4)c4cc(O)cc(O)c4-c4cc3ccc4O)[C@H](O)c3ccc(c(Cl)c3)Oc3cc2cc(c3O[C@@H]2O[C@H](CO)[C@@H](O)[C@H](O)[C@H]2O[C@H]2C[C@](C)(N)[C@H](O)[C@H](C)O2)Oc2ccc(cc2Cl)[C@H]1O	broth microdilution	vancomycin-resistant		3 µM
CC(C)[C@H](NC(=O)[C@H](Cc1ccc(O)cc1)NC(=O)[C@H](CS)NC(=O)[C@@H](NC(=O)[C@H](CCCNC(=N)N)NC(=O)[C@H](Cc1ccccc1)NC(=O)[C@H](CS)NC(=O)[C@H](Cc1c[nH]c2ccccc12)NC(=O)[C@@H](N)CCCNC(=N)N)C(C)C)C(=O)NCC(=O)N[C@@H](Cc1ccccc1)C(=O)N[C@@H](CS)C(=O)N[C@@H](Cc1ccc(O)cc1)C(=O)N[C@@H](Cc1c[nH]c2ccccc12)C(=O)N[C@@H](CCCCN)C(=O)N[C@@H](CS)C(=O)N[C@@H](CCCNC(=N)N)C(=O)O		ATCC 29212		4.39 µg/mL
